{"data": "Assay results of several laboratories", "note": "± gives the spread as reported."}
{"SMILES": "N=C(N)NCCC[C@@H]1NC(=O)[C@H](CCCCNC(=O)CC[C@H](NC(=O)CC[C@H](NC(=O)CN2CCN(CC(=O)O)CCN(CC(=O)O)CCN(CC(=O)O)CC2)C(=O)N[C@@H](CCC(=O)NCCCC[C@@H]2NC(=O)[C@@H](Cc3ccccc3)NC(=O)[C@H](CC(=O)O)NC(=O)CNC(=O)[C@H](CCCNC(=N)N)NC2=O)C(=O)NCCCC[C@@H]2NC(=O)[C@@H](Cc3ccccc3)NC(=O)[C@H](CC(=O)O)NC(=O)CNC(=O)[C@H](CCCNC(=N)N)NC2=O)C(=O)NCCCC[C@@H]2NC(=O)[C@@H](Cc3ccccc3)NC(=O)[C@H](CC(=O)O)NC(=O)CNC(=O)[C@H](CCCNC(=N)N)NC2=O)NC(=O)[C@@H](Cc2ccccc2)NC(=O)[C@H](CC(=O)O)NC(=O)CNC1=O [indium-111 labelled]", "system": "female athymic nu/nu mice, kidney", "setting": "intravenous, 1 h", "tissue uptake [%ID/g]": "7.28 ± 0.57"}
{"SMILES": "CCCC[C@H](NC(=O)COCCOCCNC(=O)CN1CCN(CC(=O)O)CCN(CC(=O)O)CC1)C(=O)N[C@H]1CC(=O)NCCCC[C@@H](C(N)=O)NC(=O)[C@H](Cc2c[nH]c3ccccc23)NC(=O)[C@H](CCCNC(=N)N)NC(=O)[C@@H](Cc2ccccc2)NC(=O)[C@H](Cc2c[nH]cn2)NC1=O [copper-64 labelled]", "system": "C57 mice, spleen", "setting": "intravenous, 0.37 MBq, 24 h", "tissue uptake [%ID/g]": "0.36 ± 0.17"}
{"SMILES": "CCCC[C@H](NC(=O)CNC(=O)CNC(=O)CN1CCN(CC(=O)O)CCN(CC(=O)O)CCN(CC(=O)O)CC1)C(=O)N[C@H]1CC(=O)NCCCC[C@@H](C(N)=O)NC(=O)[C@H](Cc2c[nH]c3ccccc23)NC(=O)[C@H](CCCNC(=N)N)NC(=O)[C@@H](Cc2ccccc2)NC(=O)[C@H](Cc2c[nH]cn2)NC1=O [lutetium-177 labelled]", "system": "C57 mouse, female, bone", "setting": "intravenous, 0.037 MBq, 2 h", "tissue uptake [%ID/g]": "0.34 ± 0.1"}
{"SMILES": "CC(C)C[C@H](NC(=O)[C@@H](CCCCNC(=O)CCCCCNC(=O)CN1CCN(CC(=O)O)CCN(CC(=O)O)CCN(CC(=O)O)CC1)NC(=O)[C@H](Cc1ccc(O)cc1)NC(=O)[C@H](CO)NC(=O)[C@H](Cc1c[nH]c2ccccc12)NC(=O)[C@H](Cc1cnc[nH]1)NC(=O)[C@@H]1CCC(=O)N1)C(=O)N[C@@H](CCCNC(=N)N)C(=O)N1CCC[C@H]1C(=O)NCC(N)=O [indium-111 labelled]", "system": "female athymic nude mouse, kidneys", "setting": "intravenous, 0.037 MBq, 0.5 h", "tissue uptake [%ID/g]": "15.4 ± 4.59"}
{"SMILES": "N=C(N)NCCC[C@@H]1NC(=O)[C@H](CCCCNC(=O)CNC(=O)CNC(=O)CNC(=O)CC[C@H](NC(=O)CNC(=O)CNC(=O)CNC(=O)CC[C@H](NC(=O)CN2CCN(CC(=O)O)CCN(CC(=O)O)CCN(CC(=O)O)CC2)C(=O)NCC(=O)NCC(=O)NCC(=O)N[C@@H](CCC(=O)NCC(=O)NCC(=O)NCC(=O)NCCCC[C@@H]2NC(=O)[C@@H](Cc3ccccc3)NC(=O)[C@H](CC(=O)O)NC(=O)CNC(=O)[C@H](CCCNC(=N)N)NC2=O)C(=O)NCC(=O)NCC(=O)NCC(=O)NCCCC[C@@H]2NC(=O)[C@@H](Cc3ccccc3)NC(=O)[C@H](CC(=O)O)NC(=O)CNC(=O)[C@H](CCCNC(=N)N)NC2=O)C(=O)NCC(=O)NCC(=O)NCC(=O)NCCCC[C@@H]2NC(=O)[C@@H](Cc3ccccc3)NC(=O)[C@H](CC(=O)O)NC(=O)CNC(=O)[C@H](CCCNC(=N)N)NC2=O)NC(=O)[C@@H](Cc2ccccc2)NC(=O)[C@H](CC(=O)O)NC(=O)CNC1=O [indium-111 labelled]", "system": "female athymic nu/nu mice, spleen", "setting": "intravenous, 111 kBq, 4 h", "tissue uptake [%ID/g]": "2.35 ± 0.23"}
{"SMILES": "CCCC[C@H](NC(=O)CCCCCCCNC(=O)CN1CCN(CC(=O)O)CCN(CC(=O)O)CC1)C(=O)N[C@H]1CC(=O)NCCCC[C@@H](C(N)=O)NC(=O)[C@H](Cc2c[nH]c3ccccc23)NC(=O)[C@H](CCCNC(=N)N)NC(=O)[C@@H](Cc2ccccc2)NC(=O)[C@H](Cc2c[nH]cn2)NC1=O [copper-64 labelled]", "system": "C57 mice, skin", "setting": "intravenous, 0.37 MBq, 0.5 h", "tissue uptake [%ID/g]": "2.93 ± 0.22"}
{"SMILES": "N=C(N)NCCC[C@@H]1NC(=O)[C@H](CCCCNC(=O)CNC(=O)CNC(=O)CNC(=O)CC[C@H](NC(=O)CNC(=O)CNC(=O)CNC(=O)CN2CCN(CC(=O)O)CCN(CC(=O)O)CCN(CC(=O)O)CC2)C(=O)NCC(=O)NCC(=O)NCC(=O)NCCCC[C@@H]2NC(=O)[C@@H](Cc3ccccc3)NC(=O)[C@H](CC(=O)O)NC(=O)CNC(=O)[C@H](CCCNC(=N)N)NC2=O)NC(=O)[C@@H](Cc2ccccc2)NC(=O)[C@H](CC(=O)O)NC(=O)CNC1=O [indium-111 labelled]", "system": "female athymic nu/nu mice, kidney", "setting": "intravenous, 1 h", "tissue uptake [%ID/g]": "3.88 ± 0.48"}
{"SMILES": "N=C(N)NCCC[C@@H]1NC(=O)[C@H](CCCCNC(=O)CNC(=O)CNC(=O)CNC(=O)CC[C@H](NC(=O)CNC(=O)CNC(=O)CNC(=O)CN2CCN(CC(=O)O)CCN(CC(=O)O)CCN(CC(=O)O)CC2)C(=O)NCC(=O)NCC(=O)NCC(=O)NCCCC[C@@H]2NC(=O)[C@@H](Cc3ccccc3)NC(=O)[C@H](CC(=O)O)NC(=O)CNC(=O)[C@H](CCCNC(=N)N)NC2=O)NC(=O)[C@@H](Cc2ccccc2)NC(=O)[C@H](CC(=O)O)NC(=O)CNC1=O [copper-64 labelled]", "system": "athymic nu/nu mouse, female, muscle", "setting": "intravenous, 0.5 h", "tissue uptake [%ID/g]": "1.61 ± 0.66"}
{"SMILES": "CCCC[C@H](NC(=O)CNC(=O)CNC(=O)CN1CCN(CC(=O)O)CCN(CC(=O)O)CC1)C(=O)N[C@H]1CC(=O)NCCCC[C@@H](C(N)=O)NC(=O)[C@H](Cc2c[nH]c3ccccc23)NC(=O)[C@H](CCCNC(=N)N)NC(=O)[C@@H](Cc2ccccc2)NC(=O)[C@H](Cc2c[nH]cn2)NC1=O [technetium-99m labelled]", "system": "C57 mouse, spleen", "setting": "iv, 0.037 MBq, 24 h", "tissue uptake [%ID/g]": "0.19 ± 0.25"}
